Measurements of several laboratories.
± marks the error that the study gave.
Mapk1: Mitogen-activated protein kinase 1 (Mapk1, Rattus norvegicus, UniProt P63086)
PFF0160c: Dihydroorotate dehydrogenase (quinone), mitochondrial (PFF0160c, Plasmodium falciparum, UniProt Q08210)
Transcriptional regulator PlcR: Transcriptional regulator PlcR (Bacillus thuringiensis, UniProt A0ACM8Q0N2)
CYP1A2: Cytochrome P450 1A2 (CYP1A2, Homo sapiens, UniProt P05177)
CA1: Carbonic anhydrase 1 (CA1, Homo sapiens, UniProt P00915)

SMILES	target	assay	system	setting	IC50
CC[C@H](C)[C@H](NC(=O)[C@H](Cc1ccccc1)NC(=O)[C@@H](NC(=O)[C@H](CCCNC(=N)N)NC(=O)[C@H](CC(C)C)NC(=O)[C@H](CCCCN)NC(=O)[C@H](CCCNC(=N)N)NC(=O)[C@H](CCCCN)NC(=O)[C@H](CCC(N)=O)NC(=O)[C@H](CCCCN)NC(=O)[C@@H](NC(=O)[C@@H]1CCCN1C(=O)[C@H](C)NC(=O)[C@@H](N)Cc1ccc(O)cc1)[C@@H](C)CC)[C@@H](C)CC)C(=O)N[C@@H](CO)C(=O)N[C@@H](CC(N)=O)C(=O)O	Mapk1	enzyme activity, inhibitor, fluorescence	–	pH 7.4	7.02 µM
OC[C@@H]1[C@@H](O)[C@H](O)[C@@H](O)[C@H]2N[C@@H]12	bglA (Thermotoga maritima, UniProt Q08638)	enzyme activity, inhibitor	–	pH 6.8, with preincubation	30.6 µM
CC[C@H](C)[C@H](NC(=O)[C@H](CC(C)C)NC(=O)[C@@H]1CCCN1C(=O)[C@H](CCC(=O)O)NC(=O)[C@@H]1CCCN1C(=O)[C@H](CCCNC(=N)N)NC(=O)[C@@H]1CCCN1C(=O)[C@H](CCCNC(=N)N)NC(=O)[C@H](CCC(N)=O)NC(=O)[C@H](CCCCN)NC(=O)[C@@H]1CCCN1C(=O)[C@H](C)NC(=O)[C@@H](N)Cc1ccc(O)cc1)C(=O)N[C@H](C(=O)N[C@@H](C)C(=O)N[C@H](C(=O)O)[C@@H](C)O)[C@@H](C)CC	Mapk1	enzyme activity, inhibitor, fluorescence	–	pH 7.4	19.8 µM
O=C(O)CCn1c(=O)oc2cc(Cl)c(Cl)cc21	Potassium voltage-gated channel subfamily KQT member 1, with KCNE1 (KCNQ1, Homo sapiens, UniProt P51787)	ion current, blocker	–	–	> 25.1 µM
CC(C)C[C@H](NC(=O)[C@H](CC(C)C)NC(=O)[C@H](CC(C)C)NC(=O)[C@H](CCCNC(=N)N)NC(=O)[C@H](CCCCN)NC(=O)[C@@H]1CCCN1C(=O)[C@H](CCCCN)NC(=O)[C@@H]1CCCN1C(=O)CNC(=O)[C@H](CCCNC(=N)N)NC(=O)[C@H](CCCCN)NC(=O)[C@H](CCCNC(=N)N)NC(=O)[C@H](C)NC(=O)[C@@H](N)Cc1ccc(O)cc1)C(=O)N[C@@H](CCC(N)=O)C(=O)N[C@@H](CCCNC(=N)N)C(=O)O	Mapk1	enzyme activity, inhibitor, fluorescence	–	pH 7.4	4.22 µM
CCCN(Cc1nnc(-c2ccco2)o1)C(=O)C1CCCN(C(=O)c2ccc(Cl)cc2)C1 (stereo not shown)	PFF0160c	enzyme activity, inhibitor, absorbance	–	–	0.514 µM
CSCC[C@H](N)C(=O)N[C@@H](CC(=O)O)C(=O)N[C@@H](CC(C)C)C(=O)N1CCC[C@H]1C(=O)N[C@@H](Cc1ccccc1)C(=O)N[C@@H](CCC(=O)O)C(=O)N[C@H](Cc1ccccc1)C(N)=O	Transcriptional regulator PlcR	reporter gene, inhibitor, lacZ reporter	407 Cry−	–	0.58 ± 0.035 µM
CC[C@H](C)[C@H](NC(=O)[C@H](CCCNC(=N)N)NC(=O)[C@H](C)NC(=O)[C@H](CS)NC(=O)[C@H](CCCNC(=N)N)NC(=O)[C@H](CO)NC(=O)CNC(=O)[C@H](C)NC(=O)[C@@H](N)Cc1ccc(O)cc1)C(=O)N[C@@H](Cc1ccccc1)C(=O)N[C@@H](CCCNC(=N)N)C(=O)N[C@@H](CC(C)C)C(=O)N[C@H](C(=O)N[C@@H](CC(C)C)C(=O)N[C@@H](CCC(N)=O)C(=O)N[C@@H](CCCCN)C(=O)O)C(C)C	Mapk1	enzyme activity, inhibitor, fluorescence	–	pH 7.4	18.1 µM
Cc1cc(Cl)ccc1OC(C)C(=O)N1CCc2ccccc21 (stereo not shown)	PFF0160c	enzyme activity, inhibitor, absorbance	–	–	0.903 µM
COC(=O)Cc1cc2c(cc1C(=O)c1cccc(Br)c1)OCO2	Glutamate receptor AMPA 1/2 (Gria1/Gria2, Rattus norvegicus, UniProt P19490+P19491)	ion current, patch clamp	–	–	5.41 µM
Cc1ccc(N2CC3CC(C2)N3)cc1C(=O)NC1(c2ccc3c4c(cccc24)C(=O)N3C)CC1	CYP1A2	enzyme activity, inhibitor	–	–	14.8 µM
Cc1ccc(CNC(=O)c2ccn3c(-c4ccc(C#N)cc4)cnc3c2)cn1	CYP1A2	enzyme activity, inhibitor	–	–	> 10 µM
Cc1cc(Nc2ccc(Cl)cc2)n2nc(C(F)(F)F)nc2n1	PFF0160c (Plasmodium falciparum, UniProt Q08210, E182D)	enzyme activity, inhibitor, absorbance	–	–	7.96 µM
C=C1NC(=O)CNC(=O)[C@H](CCCNC(=N)N)NC(=O)[C@H](Cc2ccc(O)cc2)NC(=O)[C@H](CC(C)C)NC(=O)[C@H](CO)NC(=O)[C@H](CCCCN)NC(=O)[C@H](CC(N)=O)NC(=O)CNC(=O)[C@H](Cc2ccccc2)NC(=O)[C@H](Cc2c[nH]c3ccccc23)NC(=O)[C@H](Cc2c[nH]c3ccccc23)NC(=O)c2ccc(-c3nc(C(=O)OC)cs3)nc2-c2csc1n2	TNIK (Homo sapiens, UniProt Q9UKE5)	enzyme activity, inhibitor, ADP detection	–	–	1.7 µM
COCCCC1CCCCN1C(=O)Oc1ccc([N+](=O)[O-])cc1 (stereo not shown)	Cocaine esterase (CES2, Homo sapiens, UniProt O00748)	enzyme activity, inhibitor, fluorescence	–	–	2.7 µM
CC[C@H](C)[C@H](NC(=O)[C@H](CCCCN)NC(=O)[C@H](CC(C)C)NC(=O)CNC(=O)[C@@H]1CCCN1C(=O)[C@H](CC(N)=O)NC(=O)[C@H](CCCNC(=N)N)NC(=O)[C@H](CCCCN)NC(=O)[C@H](CCCCN)NC(=O)CNC(=O)[C@H](CCCCN)NC(=O)[C@H](CO)NC(=O)[C@H](C)NC(=O)[C@@H](N)Cc1ccc(O)cc1)C(=O)N1CCC[C@H]1C(=O)N[C@@H](CCCCN)C(=O)O	Mapk1	enzyme activity, inhibitor, fluorescence	–	pH 7.4	24 µM

SMILES	target	assay	system	setting	IC50
O=S(=O)(F)c1cccc(S(=O)(=O)Nc2ccc(C3CC3)c(F)c2)c1	GTPase KRas (KRAS, Homo sapiens, UniProt P01116)	SOS1-coupled RAF binding, AlphaScreen	–	24 h	141 ± 12 µM
Cc1[nH]c(C)c(S(=O)(=O)NC(C)(C)C)c1C(=O)N1CCCC1	DRD3 (Homo sapiens, UniProt P35462)	β-arrestin recruitment, antagonist, PathHunter	–	with: dopamine EC80	> 100 µM
CCN(N=Cc1cnc2ccc(Br)cn12)S(=O)(=O)c1cc([N+](=O)[O-])ccc1C	PIK3CA (Homo sapiens, UniProt P42336, I771Y)	enzyme activity, inhibitor	–	–	0.661 µM
CC12CCC3C4CCC(C#N)CC4CCC3C1CCC2O (stereo not shown)	Androgen receptor (AR, Homo sapiens, UniProt P10275)	nuclear translocation, antagonist	–	–	0.16 µM
O=[N+]([O-])c1ccc(S(=O)(=O)Oc2ccc(/C=N/NS(=O)(=O)c3cc(Cl)ccc3Cl)cc2)cc1	CA1	enzyme activity, inhibitor, absorbance	–	–	0.0145 µM
CN(C)c1ncnc2c1ncn2[C@@H]1O[C@H](CCl)[C@@H](NC(=O)[C@H](N)CSC(c2ccccc2)c2ccccc2)[C@H]1O	Puromycin-sensitive aminopeptidase (Homo sapiens, UniProt P55786)	enzyme activity, inhibitor, fluorescence	–	–	8.4 µM
O=C(c1cc(Cc2n[nH]c(=O)c3ccccc23)ccc1F)N1CC(CNC2CC2)C1	PARP10 (Homo sapiens, UniProt Q53GL7)	enzyme activity, inhibitor	–	–	> 10 µM
O=c1c(O)c(-c2ccc(O)c(O)c2)oc2cc(O)c(O)c(O)c12	Fructose-bisphosphate aldolase (Candida albicans, UniProt Q9URB4)	enzyme activity, inhibitor, absorbance	–	–	1.14 µM
CC(C)C[C@H](NC(=O)[C@H]1O[C@@H]1C(=O)O)C(=O)NCCCCN=C(N)N	Cathepsin K (CTSK, Homo sapiens, UniProt P43235)	enzyme activity, inhibitor	–	–	0.000975 µM
O=S(=O)(N/N=C/c1ccc(OS(=O)(=O)c2ccc(Cl)cc2)cc1)c1ccc(Cl)cc1	CA1	enzyme activity, inhibitor, absorbance	–	–	0.166 µM
C[C@@H]1COCCN1c1nc(NCc2cccnc2C(F)(F)F)c2cccnc2n1	human NMDA receptor	–	–	agonist mode	> 100 µM
CC[C@H](C)[C@H](NC(=O)[C@H](CCCCN)NC(=O)[C@H](CC(C)C)NC(=O)[C@H](CCCCN)NC(=O)[C@H](CC(C)C)NC(=O)[C@H](CCCCN)NC(=O)[C@@H]1CCCN1C(=O)[C@H](CCCCN)NC(=O)[C@H](CO)NC(=O)[C@H](CCCNC(=N)N)NC(=O)[C@H](CCCCN)NC(=O)[C@H](CCCNC(=N)N)NC(=O)[C@H](C)NC(=O)[C@@H](N)Cc1ccc(O)cc1)C(=O)N[C@H](C(=O)N[C@@H](CC(N)=O)C(=O)O)[C@@H](C)CC	Mapk1	enzyme activity, inhibitor, fluorescence	–	pH 7.4	0.694 µM
CCCCCCCCCCCCCCCCCC(=O)NC[C@H]1CC[C@H](C(=O)N[C@@H](CCC(=O)NCCCOCCOCCOCCCNC(=O)COCC(=O)N[C@@H](Cc2ccc(O)cc2)C(=O)NC(C)(Cc2ccccc2)C(=O)N[C@@H](CC(C)C)C(=O)N[C@@H](CCCC)C(=O)N[C@@H](CCCNC(=N)N)C(=O)N2CCC[C@H]2C(=O)N[C@@H](CCCNC(=N)NC)C(=O)N[C@@H](CC(N)=O)C(N)=O)C(=O)O)CC1 (stereo partly shown)	NMUR1 (Homo sapiens, UniProt Q9HB89)	ligand displacement, radioligand	–	cell membranes	0.0029 µM
CC(C)C[C@H](NC(=O)[C@H](C)NC(=O)[C@@H](N)Cc1ccc(O)cc1)C(=O)N[C@@H](CCC(N)=O)C(=O)N[C@@H](CCC(N)=O)C(=O)N[C@@H](CCCNC(=N)N)C(=O)N[C@@H](CCCNC(=N)N)C(=O)N[C@@H](CC(C)C)C(=O)N[C@@H](CCC(N)=O)C(=O)N[C@@H](Cc1c[nH]cn1)C(=O)N[C@@H](CCCNC(=N)N)C(=O)N[C@@H](CC(C)C)C(=O)N[C@@H](CCCNC(=N)N)C(=O)N[C@@H](CC(C)C)C(=O)N[C@@H](CCCNC(=N)N)C(=O)N[C@@H](C)C(=O)O	Mapk1	enzyme activity, inhibitor, fluorescence	–	pH 7.4	21.8 µM
CC(C)C[C@H](NC(=O)[C@H](CC(=O)O)NC(=O)[C@@H](N)Cc1ccc(O)cc1)C(=O)N1CCC[C@H]1C(=O)N[C@@H](Cc1ccccc1)C(=O)N[C@H](CCC(=O)O)C(=O)N[C@@H](Cc1ccccc1)C(N)=O	Transcriptional regulator PlcR	reporter gene, inhibitor, lacZ reporter	407 Cry−	1 h, phase, late exponential, added at	0.588 ± 0.077 µM

Excerpt of the above:
SMILES	target	assay	system	setting	IC50
O=[N+]([O-])c1ccc(S(=O)(=O)Oc2ccc(/C=N/NS(=O)(=O)c3cc(Cl)ccc3Cl)cc2)cc1	CA1	enzyme activity, inhibitor, absorbance	–	–	0.0145 µM
CN(C)c1ncnc2c1ncn2[C@@H]1O[C@H](CCl)[C@@H](NC(=O)[C@H](N)CSC(c2ccccc2)c2ccccc2)[C@H]1O	Puromycin-sensitive aminopeptidase (Homo sapiens, UniProt P55786)	enzyme activity, inhibitor, fluorescence	–	–	8.4 µM
O=C(c1cc(Cc2n[nH]c(=O)c3ccccc23)ccc1F)N1CC(CNC2CC2)C1	PARP10 (Homo sapiens, UniProt Q53GL7)	enzyme activity, inhibitor	–	–	> 10 µM
O=c1c(O)c(-c2ccc(O)c(O)c2)oc2cc(O)c(O)c(O)c12	Fructose-bisphosphate aldolase (Candida albicans, UniProt Q9URB4)	enzyme activity, inhibitor, absorbance	–	–	1.14 µM
